# Published values collected from several papers.
# Numbered parts are unrelated; each lists some results of a single study. Positions count from the first letter of the parent shown.

# Series 1 — technique: protein binding microarray; form: double-stranded DNA, one strand shown; sample: in vitro; tested at: not given; baseline: not given; direction: higher = stronger binding
# Target: Histone acetyltransferase KAT6A, winged helix 2, GST fusion (KAT6A, Homo sapiens, UniProt Q92794, residues 85-181)
# Notes: 8-mer, flanks averaged, mean of 2 arrays, mostly near background
# Residues (chain): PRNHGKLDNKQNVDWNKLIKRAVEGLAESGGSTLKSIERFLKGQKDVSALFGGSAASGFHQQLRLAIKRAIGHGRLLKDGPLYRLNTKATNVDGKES
Oligonucleotide,E-score
GGTAGGGA,-0.0764
CCGTTACC,0.0275
GATGCTCA,0.0149
ACAGTTGA,-0.169
CACCCTGA,-0.0029

# Series 2 — technique: universal PBM; form: double-stranded DNA, one strand shown; sample: in vitro; tested at: 600 nM; direction: higher = stronger binding
# Target: Sal-like protein 4, full length isoform A (SALL4, Homo sapiens, UniProt Q9UJQ4, residues 1-1053)
# UniProt Q9UJQ4, sequence (whole entry, looked up): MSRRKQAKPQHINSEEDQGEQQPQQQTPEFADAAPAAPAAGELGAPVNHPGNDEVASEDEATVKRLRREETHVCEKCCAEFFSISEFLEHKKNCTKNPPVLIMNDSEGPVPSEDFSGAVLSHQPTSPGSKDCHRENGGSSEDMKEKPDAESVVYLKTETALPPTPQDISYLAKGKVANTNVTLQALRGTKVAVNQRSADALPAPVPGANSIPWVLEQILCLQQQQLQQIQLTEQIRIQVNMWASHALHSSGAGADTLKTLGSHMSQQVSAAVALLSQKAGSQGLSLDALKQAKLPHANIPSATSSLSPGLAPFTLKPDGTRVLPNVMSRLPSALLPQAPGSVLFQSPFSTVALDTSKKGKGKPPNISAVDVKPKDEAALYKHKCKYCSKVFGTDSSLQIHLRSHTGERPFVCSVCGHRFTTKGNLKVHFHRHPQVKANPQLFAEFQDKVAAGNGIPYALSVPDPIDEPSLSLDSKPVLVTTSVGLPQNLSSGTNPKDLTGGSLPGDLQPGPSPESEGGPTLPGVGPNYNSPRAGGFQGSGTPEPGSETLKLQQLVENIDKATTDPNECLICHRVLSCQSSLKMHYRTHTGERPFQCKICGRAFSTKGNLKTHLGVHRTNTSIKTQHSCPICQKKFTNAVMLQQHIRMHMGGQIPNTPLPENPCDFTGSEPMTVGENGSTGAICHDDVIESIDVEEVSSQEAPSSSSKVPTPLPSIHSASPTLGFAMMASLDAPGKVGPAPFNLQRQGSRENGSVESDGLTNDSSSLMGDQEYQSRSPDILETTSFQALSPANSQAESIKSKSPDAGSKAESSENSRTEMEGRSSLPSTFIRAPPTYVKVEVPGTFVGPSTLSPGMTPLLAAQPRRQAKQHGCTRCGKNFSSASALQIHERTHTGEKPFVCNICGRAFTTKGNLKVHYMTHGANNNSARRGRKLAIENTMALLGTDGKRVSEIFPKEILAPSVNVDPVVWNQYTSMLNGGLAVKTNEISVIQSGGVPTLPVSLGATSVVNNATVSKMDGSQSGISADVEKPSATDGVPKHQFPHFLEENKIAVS
# Notes: 8-mer, flanks averaged, mean of replicates
Oligonucleotide,E-score
CGTTAACC,-0.0843
CGGTTCAG,-0.259
GCATCGTA,-0.0424
CGTCCGAG,-0.238
GAGTCTCC,-0.264
ACATCCTA,0.0947
CTGACCGC,-0.291

# Series 3 — target: CCNF, cyclin fold, Cln2 fusion (human); technique: yeast growth competition, sequencing; sample: yeast; notes: strong parent motif; baseline: not given; direction: higher = stronger binding
# Parent: MICAL3 docking peptide (human); LQLRRQLSFSEDS
Variant,normalised enrichment score
S10N,5.03
D12N,5.66
Q6R,7.03
D12I,5.44

# Mixed results
Molecule,target,assay,test system,setting,scale,quantity,value
"PhoQ, residues 284 288 289 292 302 303 SCCLKL","PhoP, residues 12 14 15 18 19 LHTVM (Escherichia coli, UniProt P23836)","Sort-seq, item: YFP reporter",E. coli,"PhoQ-PhoP variant library, added: 10 µM Mg2+","baseline: high Mg2+ state, higher = stronger signaling",fold induction,5.27
